Published values collected from several papers.
Every numbered part comes from another study and shows a few of its results, in no order.

Block 1
Target: Histone acetyltransferase KAT6A, winged helix 1, GST fusion (KAT6A, Homo sapiens, UniProt Q92794, residues 1-85)
Method: protein binding microarray
Form: double-stranded DNA, one strand shown
Matrix: in vitro
Concentration: not given
Setting: 8-mer, flanks averaged, mean of 2 arrays, mostly near background
Relative to: not given
Direction: higher = stronger binding
Residues (chain): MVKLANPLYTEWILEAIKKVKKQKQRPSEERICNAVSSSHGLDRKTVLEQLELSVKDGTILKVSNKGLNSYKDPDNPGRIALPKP
Oligonucleotide | E-score
TAGGACGA | -0.126
TAATTAGA | -0.0922
AAGCATGC | -0.0488
GCTCCGAA | 0.0216
ATGGTCCC | -0.0893
AACTCCTC | -0.181

Block 2
Target: Centromere-binding protein 1, full length, N-terminal tag (CBF1, Saccharomyces cerevisiae, UniProt P17106, residues 1-351)
Chain of UniProt P17106 (whole entry, looked up): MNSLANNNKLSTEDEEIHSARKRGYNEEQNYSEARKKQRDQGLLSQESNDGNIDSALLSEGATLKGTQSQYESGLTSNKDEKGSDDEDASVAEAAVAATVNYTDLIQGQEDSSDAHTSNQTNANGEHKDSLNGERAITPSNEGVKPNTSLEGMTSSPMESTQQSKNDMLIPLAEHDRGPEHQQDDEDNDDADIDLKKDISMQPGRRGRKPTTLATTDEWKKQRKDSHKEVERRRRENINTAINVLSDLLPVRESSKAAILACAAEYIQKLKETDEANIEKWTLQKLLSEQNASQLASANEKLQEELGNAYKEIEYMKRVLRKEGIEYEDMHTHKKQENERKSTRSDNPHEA
Method: protein-binding microarray
Form: double-stranded DNA, one strand shown
Matrix: in vitro
Concentration: 0.8 µM
Setting: whole 60-bp probe, no competitor
Direction: higher = stronger binding
Shared flanks, not repeated: … GTCTTGATTCGCTTGACGCTGCTG
Oligonucleotide | fluorescence intensity [a.u.]
GAAATTTTAATCCGTCACCATAATAAGATATTTTAG | 511
CTACTGATTTGAACTCATGTGATCACTTTTGTTTTC | 2970
CCTAACTACTATAATATCATGACATAGCTTCGTACA | 531
CTATAGTTTGTCGCTGGTCACGTGCGACAATGCTTC | 16800
CCTAACTACTATAGGCATGTGGTATAGCTTCGTACA | 673

Block 3
Target: Sal-like protein 4, full length isoform A (SALL4, Homo sapiens, UniProt Q9UJQ4, residues 1-1053)
Chain of UniProt Q9UJQ4 (whole entry, looked up): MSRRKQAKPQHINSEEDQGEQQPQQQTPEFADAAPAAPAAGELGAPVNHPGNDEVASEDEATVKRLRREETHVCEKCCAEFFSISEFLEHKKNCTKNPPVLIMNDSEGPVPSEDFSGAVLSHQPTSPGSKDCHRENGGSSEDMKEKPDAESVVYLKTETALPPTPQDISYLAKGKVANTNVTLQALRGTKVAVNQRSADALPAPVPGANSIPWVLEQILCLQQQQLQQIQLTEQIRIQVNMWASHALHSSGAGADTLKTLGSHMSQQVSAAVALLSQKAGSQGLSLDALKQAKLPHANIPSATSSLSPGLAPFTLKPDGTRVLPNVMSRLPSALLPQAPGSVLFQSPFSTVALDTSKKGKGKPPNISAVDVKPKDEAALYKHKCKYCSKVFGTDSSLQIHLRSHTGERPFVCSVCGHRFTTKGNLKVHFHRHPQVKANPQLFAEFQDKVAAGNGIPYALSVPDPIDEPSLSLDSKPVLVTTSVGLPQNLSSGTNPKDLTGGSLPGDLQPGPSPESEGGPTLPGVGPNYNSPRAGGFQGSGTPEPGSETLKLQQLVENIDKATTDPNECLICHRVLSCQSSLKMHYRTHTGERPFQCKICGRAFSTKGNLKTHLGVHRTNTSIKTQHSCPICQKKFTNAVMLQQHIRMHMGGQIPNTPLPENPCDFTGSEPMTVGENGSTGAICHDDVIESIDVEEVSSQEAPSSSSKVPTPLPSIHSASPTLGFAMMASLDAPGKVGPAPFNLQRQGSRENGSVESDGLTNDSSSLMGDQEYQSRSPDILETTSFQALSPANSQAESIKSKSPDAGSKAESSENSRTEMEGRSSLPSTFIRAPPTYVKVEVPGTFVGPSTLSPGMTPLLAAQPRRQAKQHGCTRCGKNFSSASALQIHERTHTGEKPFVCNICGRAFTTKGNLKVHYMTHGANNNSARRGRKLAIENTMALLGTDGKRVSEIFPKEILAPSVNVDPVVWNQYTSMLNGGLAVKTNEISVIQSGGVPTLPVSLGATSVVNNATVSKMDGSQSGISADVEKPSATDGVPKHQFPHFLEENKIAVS
Method: universal PBM
Form: double-stranded DNA, one strand shown
Matrix: in vitro
Concentration: 600 nM
Setting: 8-mer, flanks averaged, mean of replicates
Direction: higher = stronger binding
Oligonucleotide | E-score
ATCGTGAG | -0.115
AAGTGGTC | -0.0771
GAGGCTGA | -0.155
ATCGTGTA | 0.0268
AGCGCCGA | -0.193
AACCGGCC | -0.423
CGCCCTCC | -0.297
CACGTCTG | 0.0106
TAGAATGA | 0.174

Mixed results
Substance | target | test | system | setting | scale | measurement | result
PhoQ, residues 284 288 289 292 302 303 AEGLLW | PhoP, residues 12 14 15 18 19 TQAIL (Escherichia coli, UniProt P23836) | Sort-seq, item: YFP reporter | E. coli | PhoQ-PhoP variant library, added: 10 µM Mg2+ | relative to: high Mg2+ state, higher = stronger signaling | fold induction | 19.1

For quick reference, copied from above (block 3):
Oligonucleotide | E-score
TAGAATGA | 0.174
ATCGTGAG | -0.115
